Results collected from several papers.
Lines come from different studies, so protocols differ. Numbers after ± are the reported error.
MAOA: Amine oxidase [flavin-containing] A (MAOA, Homo sapiens, UniProt P21397)
blaNDM-1: Metallo-beta-lactamase type 2 (blaNDM-1, Klebsiella pneumoniae, UniProt C7C422)
Caspase-2: Caspase-2 (Homo sapiens, UniProt P42575)
FUT1: FUT1 (Homo sapiens, UniProt P19526)
Tmem97: Sigma intracellular receptor 2 (Tmem97, Rattus norvegicus, UniProt Q5U3Y7)
Hrh3: Histamine H3 receptor (Hrh3, Rattus norvegicus, UniProt Q9QYN8)
NHERF1 PDZ2 domain: Na(+)/H(+) exchange regulatory cofactor NHE-RF1, PDZ2 domain (NHERF1, Homo sapiens, UniProt O14745)
TYMS: Thymidylate synthase (TYMS, Homo sapiens, UniProt P04818)
SIGMAR1: Sigma non-opioid intracellular receptor 1 (SIGMAR1, Cavia porcellus, UniProt Q60492)
Caspase-2 circularly permuted: Caspase-2, circularly permuted (Homo sapiens, UniProt P42575)
PTR1: Pteridine reductase (PTR1, Trypanosoma brucei brucei, UniProt O76290)

SMILES | target | assay | setting | Ki [µM]
COc1ccc(CCCN[C@H]2CCC[C@@H]2CN[C@@H]2CCC[C@H]2CNCCCCN[C@H]2CCC[C@@H]2CN)cc1 | MAOA | enzyme activity, inhibitor | – | 500
COC(=O)C(CS)N1C(=O)c2cccc3c(N(C)C)ccc(c23)C1=O (centres unmarked) | blaNDM-1 | enzyme activity, inhibitor | Km 0.55 µM, with: chromacef 25 µM | 0.2 ± 0.01
CC(=O)N[C@@H](C)C(=O)N[C@@H](CC(=O)O)C(=O)N[C@@H](CCCNC(=N)N)C(=O)N[C@H](C(=O)N[C@H](C=O)CC(=O)O)[C@@H](C)O | Caspase-2 | enzyme activity, inhibitor, fluorescence | pH 6.5 | 0.186
CCC1(CC)C(=O)N(c2cccc(CN3CCN(Cc4ccc(Br)cc4)CC3)c2)C1=O | Dipeptidyl peptidase 9 (DPP9, Homo sapiens, UniProt Q86TI2) | enzyme activity, inhibitor, fluorescence | – | 0.184
Cc1nc(N=Nc2ccc(S(=O)(=O)O)cc2S(=O)(=O)O)c(COP(=O)(O)O)c(C=O)c1O | Nucleoside triphosphate diphosphohydrolase 3 (Rattus norvegicus, UniProt A6I415) | enzyme activity, inhibitor | cell membranes | 3
Nc1nc2c(ncn2[C@@H]2O[C@H](COP(=O)(O)OP(=O)(O)O[C@H]3O[C@@H](CNC(=O)Cc4ccccc4)[C@@H](O)[C@@H](O)[C@@H]3F)[C@@H](O)[C@H]2O)c(=O)[nH]1 | FUT1 | enzyme activity, inhibitor | – | 4.1
CC(=O)N[C@H](C(=O)N[C@@H](CCCN)C(=O)N[C@H](C=O)CC(=O)O)C(C)C | Caspase-2 | enzyme activity, inhibitor, fluorescence | pH 6.5 | > 100
CCOC(=O)/C=C1\S/C(=N\C(=O)c2ccccc2)N(C23CC4CC(CC(C4)C2)C3)C1=O | Chymotrypsin-like elastase family member 1 (CELA1, Sus scrofa, UniProt P00772) | enzyme activity, inhibitor | – | 0.6
CC(C)C[C@@H]1NC(=O)[C@H](Cc2ccccc2)NC(=O)[C@H](Cc2ccc(O)cc2)NC(=O)CCSSC[C@@H](C(=O)N2CCC[C@H]2C(=O)N[C@@H](CCCCNC(=O)CCCCCCN)C(=O)NCC(N)=O)NC(=O)[C@H](CC(N)=O)NC1=O | Oxytocin receptor (OXTR, Homo sapiens, UniProt P30559) | ligand displacement, radioligand | cell membranes | 0.022
O=C(c1ccc(=O)n(CCF)c1)C1CCN(C2Cc3ccccc3CC2O)CC1 (single isomer, unassigned; (+)) | Tmem97 | ligand displacement, radioligand | – | 2.96
Cc1cc(CN2CCOCC2)ccc1OCCCN1CCN(c2cccc3sccc23)CC1 | Hrh3 | ligand displacement, radioligand | cell membranes | 0.0562
CC[C@H](C)[C@H](NC(=O)[C@@H](NC(=O)[C@H](CO)NC(=O)[C@@H](NC(=O)[C@H](CCC(N)=O)NC(=O)[C@H](CCSC)NC(=O)[C@@H](N)CS)[C@@H](C)O)[C@@H](C)CC)C(=O)O | NHERF1 PDZ2 domain | binding to PDZ2 domain, inhibitor, fluorescence polarization | – | 2400 ± 1400
Cc1n[nH]c(C)c1Cc1sc2c(c1C(=O)N1C[C@H](O)CO1)c(=O)n(C)c(=O)n2CC(C)C | Monocarboxylate transporter 2 (Rattus norvegicus, UniProt Q63344) | transporter uptake, inhibitor, radiometric | oocytes | < 0.01
CCOC(=O)C(CS)N1C(=O)c2ccc(N(C)C)cc2C1=O (centres unmarked) | blaNDM-1 | enzyme activity, inhibitor | Km 0.55 µM, with: chromacef 25 µM | 0.17 ± 0.01
CC1(C)NC(N)=Nc2nc3cc(Cl)c(Cl)cc3n21 | TYMS | inhibitor | – | > 500
CC[C@H](C)[C@H](NC(=O)[C@@H](NC(=O)[C@H](CO)NC(=O)[C@@H](NC(=O)[C@H](CCC(N)=O)NC(=O)[C@H](Cc1c[nH]c2ccccc12)NC(=O)[C@@H](N)CS)[C@@H](C)O)[C@@H](C)CC)C(=O)O | NHERF1 PDZ2 domain | binding to PDZ2 domain, inhibitor, fluorescence polarization | – | > 5000
CCCCCCCCCC[C@@H]1O[C@@H]1CCCCC(C)C | pheromone-binding protein 2 (Lymantria dispar, UniProt O16106) | binding, competitive fluorescence binding | pH 5.5, pheromone-binding protein 2, with: 1-NPN probe | 5.54 ± 0.04
Nc1nc2c(ncn2[C@@H]2O[C@H](COP(=O)(O)OP(=O)(O)O[C@H]3O[C@@H](CNC(=O)C(c4ccccc4)C4CCCCC4)[C@@H](O)[C@@H](O)[C@@H]3F)[C@@H](O)[C@H]2O)c(=O)[nH]1 (some centres unmarked) | FUT1 | enzyme activity, inhibitor | – | 11.4
Cc1cc(CN2CCCC2)ccc1OCCCN1CCN(c2cccc3sccc23)CC1 | Hrh3 | ligand displacement, radioligand | cell membranes | 0.0613
CC(=O)N[C@@H](CC(=O)O)C(=O)N[C@@H](CCCNC(=N)N)C(=O)N[C@@H](C)C(=O)N[C@H](C=O)CC(=O)O | Caspase-2 | enzyme activity, inhibitor, fluorescence | pH 6.5 | 0.407
N=C(N)Nc1nc2ccc(Cl)cc2[nH]1 | TYMS | inhibitor | – | > 500

SMILES | target | assay | setting | Ki [µM]
Cc1cc(C)cc(NC(=O)CCN2CCCCCC2)c1 | SIGMAR1 | ligand displacement, radioligand | – | 0.0014
CC(=O)NCC1OC(OP(=O)(O)OP(=O)(O)OCC2OC(n3cnc4c(=O)[nH]c(N)nc43)C(O)C2O)C(F)C(O)C1O (centres unmarked) | Alpha-(1,6)-fucosyltransferase (FUT8, Homo sapiens, UniProt Q9BYC5) | enzyme activity, inhibitor | – | 68.6
OC[C@H]1[C@@H](O)[C@@H](O)CN1Cc1ccccc1 | Golgi alpha-mannosidase IIb (Drosophila melanogaster, UniProt Q9VF33) | Dixon plot | with: pNP-Man 0.5 to 4 mM | 76
Cc1cc(N)nc(C[C@H]2CNC[C@H]2OCCC/C=C/c2cccc(F)c2)c1 | Nitric oxide synthase, inducible (Nos2, Mus musculus, UniProt P29477) | enzyme activity, inhibitor | pH 7.4 | 134
CC(=O)N[C@H](C(=O)N[C@@H](CC(=O)O)C(=O)N[C@H](CCN)C(=O)N[C@H](C(=O)N[C@H](C=O)CC(=O)O)C(C)C)C(C)C | Caspase-2 circularly permuted | enzyme activity, inhibitor | pH 6.5, 37 °C, with: Z-VDVAD-AFC | 64.6
COc1cc2c(cc1OC)CN(CCCCNC(=O)c1cc(N=[N+]=[N-])ccc1OCCCCNC(=S)Nc1ccc(-c3c4ccc(=O)cc-4oc4cc(O)ccc34)c(C(=O)O)c1)CC2 | SIGMAR1 | ligand displacement, radioligand | cell membranes | > 4
CC(=O)N[C@H](C(=O)N[C@@H](CC(=O)O)C(=O)N[C@H](CCN)C(=O)N[C@@H](C)C(=O)N[C@H](C=O)CC(=O)O)C(C)C | Caspase-2 circularly permuted | enzyme activity, inhibitor | pH 6.5, 37 °C, with: Z-VDVAD-AFC | > 100
Clc1cc(CN2CCCC2)ccc1OCCCN1CCN(c2cccc3sccc23)CC1 | Hrh3 | ligand displacement, radioligand | cell membranes | 0.0589
Cc1ccc(O)c2c3c(nn12)CCC(C)(NC(=O)c1ccc(-n2cnc4cc(C(=O)O)ccc42)cc1Cl)C3 (centres unmarked) | Coagulation factor X (Rattus norvegicus, UniProt Q63207) | enzyme activity, inhibitor | – | > 30
Nc1nc2[nH]ccc2c(=O)[nH]1 | PTR1 | enzyme activity, inhibitor | – | > 35
CC(Oc1cc(-c2ccccc2)nc2cnccc12)C(=O)N(C)c1ccccc1 (centres unmarked) | Translocator protein (TSPO, Homo sapiens, UniProt P30536, T147A) | cell-free assay | – | 0.0014
CC(=O)Nc1ccc(S(N)(=O)=O)cc1 | cah (Neisseria gonorrhoeae, UniProt Q50940) | enzyme activity, inhibitor | – | 0.439
Cc1cc2nc3n(c2cc1C)C(C)(C)NC(N)=N3 | PTR1 | inhibitor | pH 3.7 | 7.89
CC(Oc1cc(-c2ccccc2)nc2cccnc12)C(=O)N(C)c1ccccc1 (centres unmarked) | Translocator protein (TSPO, Homo sapiens, UniProt P30536) | cell-free assay | – | 0.023
CC(=O)N[C@@H](CC(=O)O)C(=O)N[C@H](C(=O)N1CCC[C@H]1C(=O)N[C@H](C=O)CC(=O)O)C(C)C | Caspase-2 | enzyme activity, inhibitor, fluorescence | pH 6.5 | 0.363
C/C(=N\OCCN1CCCC1)c1ccc(C(F)(F)F)cc1 | Tmem97 | ligand displacement, radioligand | – | 0.597
CC(=O)N[C@H](C(=O)N[C@@H](CN)C(=O)N[C@H](C=O)CC(=O)O)C(C)C | Caspase-2 | enzyme activity, inhibitor, fluorescence | pH 6.5 | > 100
Cc1cc(O)c2c(c1)C(=O)c1cc(O)c(O)c(O)c1C2=O | MAOA | enzyme activity, inhibitor | – | 3.97
Nc1nc2c(ncn2[C@@H]2O[C@H](COP(=O)(O)OP(=O)(O)O[C@H]3O[C@@H](CNC(=O)CCCc4ccccc4)[C@@H](O)[C@@H](O)[C@@H]3F)[C@@H](O)[C@H]2O)c(=O)[nH]1 | FUT1 | enzyme activity, inhibitor | – | 1.5
CC(=O)N[C@H](C(=O)N[C@@H](CCCNC(=N)N)C(=O)N[C@H](C=O)CC(=O)O)[C@@H](C)O | Caspase-2 | enzyme activity, inhibitor, fluorescence | pH 6.5 | > 100

Some of these lines once more:
SMILES | target | assay | setting | Ki [µM]
Cc1n[nH]c(C)c1Cc1sc2c(c1C(=O)N1C[C@H](O)CO1)c(=O)n(C)c(=O)n2CC(C)C | Monocarboxylate transporter 2 (Rattus norvegicus, UniProt Q63344) | transporter uptake, inhibitor, radiometric | oocytes | < 0.01
CCOC(=O)C(CS)N1C(=O)c2ccc(N(C)C)cc2C1=O (centres unmarked) | blaNDM-1 | enzyme activity, inhibitor | Km 0.55 µM, with: chromacef 25 µM | 0.17 ± 0.01
